Experimental data of several laboratories.
Every numbered part comes from another study and shows a few of its results, in no order.

Series 1 — method: RNA Bind-n-Seq; form: RNA; sample: in vitro; tested at: 200 nM; setting: whole 134-nt RNA, ends assumed; added: 150 mM KCl; baseline: input library; direction: higher = stronger binding
Target: Ras GTPase-activating protein-binding protein 1, full length (G3BP1, Homo sapiens, UniProt Q13283)
Sequence of UniProt Q13283 (whole entry, looked up): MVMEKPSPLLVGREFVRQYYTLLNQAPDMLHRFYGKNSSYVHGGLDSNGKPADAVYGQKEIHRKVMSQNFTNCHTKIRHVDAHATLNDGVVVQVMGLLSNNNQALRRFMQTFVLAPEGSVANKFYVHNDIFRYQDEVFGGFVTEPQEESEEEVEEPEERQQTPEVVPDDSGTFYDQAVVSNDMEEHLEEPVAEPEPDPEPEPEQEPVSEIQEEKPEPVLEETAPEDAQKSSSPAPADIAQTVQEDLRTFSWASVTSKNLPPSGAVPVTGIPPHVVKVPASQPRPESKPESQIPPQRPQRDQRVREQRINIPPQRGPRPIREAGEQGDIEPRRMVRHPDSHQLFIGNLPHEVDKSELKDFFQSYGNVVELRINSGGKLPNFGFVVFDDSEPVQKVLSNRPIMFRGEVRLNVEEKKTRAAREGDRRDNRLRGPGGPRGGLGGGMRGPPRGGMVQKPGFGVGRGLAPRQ
Oligonucleotide	log2 enrichment
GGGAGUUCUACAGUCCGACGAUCUCCUGUGCUACACAUCGUAUGUACCGAAUCGGGGAAAAAAAGGGGAGGGGAAAAAGGGGAAAGUAUUAUGUUACGCCGUUCGGAUCUGCAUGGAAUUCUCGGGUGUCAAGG	0.511
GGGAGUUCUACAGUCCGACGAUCUCCUGUGCUACACAUCGUAUGUACCGAAUCGGGAAAAAAAGGGUUUUUGGGAAAAAGGGAAAGUAUUAUGUUACGCCGUUCGGAUCUGCAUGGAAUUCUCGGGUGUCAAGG	-0.603
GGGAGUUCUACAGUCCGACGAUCACCAUGCAGGUGGGCAUCUUUGGGAAGUGGGGCAAGGGGGGGCUAGGGAGGGGGGUAACACUUUGGGAACAGGUGGUCCCAGGUCGUUUCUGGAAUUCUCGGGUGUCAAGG	1.17
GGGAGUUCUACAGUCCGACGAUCUCCUGUGCUACACAUCGUAUGUACCGAAUCGGGGUUUUUGGGGUUUUUUUGGGGAGGGGAAAGUAUUAUGUUACGCCGUUCGGAUCUGCAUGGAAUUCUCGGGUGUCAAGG	0.698
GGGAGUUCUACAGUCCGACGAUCCUCAAGUCCUGUGCUACACAUCGUAUGUACCGAAUCGGUGGUUUUUUUGGAGGAAAGUAUUAUGUUACGCCGUUCGGAUCUGCACUUCCAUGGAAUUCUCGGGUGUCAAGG	-0.254
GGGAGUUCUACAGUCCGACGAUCGUCCUGUGCUACACAUCGUAUGUACCGAAUCAAAUUUUUUUAAACCCCCAAACCCAAAAAAGUAUUAUGUUACGCCGUUCGGAUCUGCACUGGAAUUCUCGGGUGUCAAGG	-0.282
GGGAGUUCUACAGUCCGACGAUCCAAGUCCUGUGCUACACAUCGUAUGUACCGAAUCGGGAAAAAGGGAAAGGGAGGGAAAGUAUUAUGUUACGCCGUUCGGAUCUGCACUUCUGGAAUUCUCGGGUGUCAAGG	0.714

Series 2 — method: protein binding microarray; form: double-stranded DNA, one strand shown; sample: in vitro; tested at: not given; baseline: not given; direction: higher = stronger binding
Target: Histone acetyltransferase KAT6A, winged helix 2, GST fusion (KAT6A, Homo sapiens, UniProt Q92794, residues 85-181)
Setting: 8-mer, flanks averaged, mean of 2 arrays, mostly near background
Target sequence (chain): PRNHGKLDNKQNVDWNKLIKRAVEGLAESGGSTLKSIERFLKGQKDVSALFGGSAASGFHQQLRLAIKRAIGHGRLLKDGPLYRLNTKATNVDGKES
Oligonucleotide	E-score
AATCCTCG	-0.0561
GTAGTCCA	-0.0344
GCCGGGTA	0.163
AAAGGATT	-0.0691
AAGCACCA	-0.171

Series 3 — method: RNA Bind-n-Seq; form: RNA; sample: in vitro; tested at: not given; baseline: input RNA pool; direction: higher = stronger binding
Target: RING finger protein unkempt homolog, zinc fingers 1-6, GST-SBP tag (UNK, Homo sapiens, UniProt Q9C0B0, residues 30-357)
Sequence of UniProt Q9C0B0 (30-357, looked up): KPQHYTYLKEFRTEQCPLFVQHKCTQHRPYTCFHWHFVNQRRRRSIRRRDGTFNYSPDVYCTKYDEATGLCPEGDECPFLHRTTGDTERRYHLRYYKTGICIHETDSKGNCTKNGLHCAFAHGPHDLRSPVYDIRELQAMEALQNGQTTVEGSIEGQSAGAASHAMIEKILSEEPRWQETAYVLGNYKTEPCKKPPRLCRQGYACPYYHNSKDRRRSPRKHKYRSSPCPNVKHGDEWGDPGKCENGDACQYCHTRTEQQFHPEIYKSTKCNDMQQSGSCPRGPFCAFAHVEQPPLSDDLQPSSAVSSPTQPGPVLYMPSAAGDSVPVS
Setting: RNA with constant flanks, human and mouse sites, ends assumed
Oligonucleotide	bound/input enrichment
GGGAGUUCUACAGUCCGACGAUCCAUUUAGCAUCAUUUGGGAAAGUCAAGCAGUGUGUGAAUUUUGUGAUUGGACUUUUGAAAUUAGGUGGGCUGAUUAAUUUUUUGAUUUUCCUUCAGAGGGGAAAGUUUGCAACUUUGACACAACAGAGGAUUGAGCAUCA	11.2 ratio
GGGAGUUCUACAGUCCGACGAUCUCCUCACUGGAAAACAUGCUUUUGUUUAACAGUCCUUCUGUUGGCCCUGAUGCUCCCAAGAUAGAGGACUUGAAGUGGCAUUCUGCAUUCUUCAGAAAACAAAUGGGUACUUCCUUGGUUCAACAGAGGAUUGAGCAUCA	0.174 ratio
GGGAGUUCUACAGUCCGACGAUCAAGAUCAAAGAGAAAUACAUUGAUCAGGAAGAACUAAACAAGACCAAGCCUAUUUGGACCAGAAACCCUGAUGACAUCACCCAAGAGGAGUAUGGAGAAUUCUACAAGAGCCUCACUAAUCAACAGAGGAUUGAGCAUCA	0.114 ratio
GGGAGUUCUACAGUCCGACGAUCCGCGUGCGUGCGUGUGUGUGCGCGCGCUAGUGUGUGGACAAGGAGGUGGGGGCAGCUGAGUUAGAGUCCCAACUCUUGGACUCCAUUUGCUAUUCUCUUCUUUCUCCCCCACACCUAUCUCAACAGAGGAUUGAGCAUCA	0.212 ratio
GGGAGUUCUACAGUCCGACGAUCAAAGAAUACACUGAUGUGUACCCCGAAAUCAUUGAACGAGCAGGCUAUUCCUUGGAGAAGGUAUUUGGGAUUCAAUUGAAGGAAAUUGAUAAGAAUGACCACUUGUACAUUCUUCUCAGCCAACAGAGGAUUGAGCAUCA	0.117 ratio

Further values, each from its own experiment
Substance	target	test	test system	setting	how to read	endpoint	value
PhoQ, residues 284 288 289 292 302 303 SSTLSG	PhoP, residues 12 14 15 18 19 LFHKL (Escherichia coli, UniProt P23836)	Sort-seq, item: YFP reporter	E. coli	PhoQ-PhoP variant library, added: 10 µM Mg2+	baseline: high Mg2+ state, higher = stronger signaling	fold induction	0.839

Some of these lines once more (series 1):
Oligonucleotide	log2 enrichment
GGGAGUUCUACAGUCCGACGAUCUCCUGUGCUACACAUCGUAUGUACCGAAUCGGGGUUUUUGGGGUUUUUUUGGGGAGGGGAAAGUAUUAUGUUACGCCGUUCGGAUCUGCAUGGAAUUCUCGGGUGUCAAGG	0.698
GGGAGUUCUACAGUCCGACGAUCCUCAAGUCCUGUGCUACACAUCGUAUGUACCGAAUCGGUGGUUUUUUUGGAGGAAAGUAUUAUGUUACGCCGUUCGGAUCUGCACUUCCAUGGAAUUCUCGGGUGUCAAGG	-0.254
